Measurements pooled from the literature.
Lines come from different studies, so protocols differ.
Organism: Leishmania infantum

SMILES | assay | system | setting | IC50 [µM]
NNc1n[nH]c(=O)c2ccccc12 | parasite growth, MTT | – | 72 h, promastigote | > 25
O=C(Nc1ccc2c(c1)CN(c1ccc(Br)cc1)C2=O)N1CCN(c2ccc(F)cc2)CC1 | parasite growth, imaging | – | intracellular, amastigote | 20.3
CCOC(=O)c1c(C(=O)OC)cn(CC(c2cn(C)c3ccccc23)c2cn(C)c3ccccc23)c1C | viability, MTS | human clinical isolate promastigote | 72 h | 7.2
O=[N+]([O-])/C(Br)=C/c1ccco1 | parasite growth | – | 72 h, promastigote | 1.7
NNc1nnc(Cl)c2ccccc12 | parasite growth, MTT | – | 72 h, promastigote | > 25
O=C(Nc1ccc2c(c1)CN(c1ccc(Cl)cc1)C2=O)N1CC[C@H](O)C1 | parasite growth, Giemsa stain | primary peritoneal mouse macrophages, MHOM/MA(BE)/67 amastigotes | 5 d | > 64
CCOC(=O)c1csc(NN=Cc2ccc(Cl)cc2)n1 | parasite growth | – | 72 h, promastigote | 108
O=C(Nc1ccc2c(c1)CN(c1ccc(Cl)cc1)C2=O)N1CC[C@H](F)C1 | parasite growth, Giemsa stain | primary peritoneal mouse macrophages, MHOM/MA(BE)/67 amastigotes | 5 d | > 64
CCOC(=O)c1csc(NN=Cc2ccccc2O)n1 | parasite growth | – | 72 h, promastigote | 290
O=C(Nc1ccc2c(c1)CN(c1ccc(F)c(F)c1)C2=O)N1CCN(c2ccc(Cl)cc2)CC1 | parasite growth, Giemsa stain | primary peritoneal mouse macrophages, MHOM/MA(BE)/67 amastigotes | 5 d | > 64
O=[N+]([O-])/C=C/c1ccco1 | parasite growth | – | 72 h, promastigote | 2.5
CCOC(=O)c1cn(CC(c2c[nH]c3cc(Br)ccc23)c2c[nH]c3cc(Br)ccc23)c(C)c1C(=O)OC | viability, MTS | human clinical isolate promastigote | 72 h | 6.4
CCCCCc1cn(CCCCCCCCCCCOP(=O)([O-])OCC[N+](C)(C)C)nn1 | parasite growth, flow cytometry | – | 24 h, promastigote | > 200
